Measurements gathered from unrelated publications.
Lines come from different studies, so protocols differ. “And” joins repeats or separate records; there may be more than shown. ± marks the error that the study gave.
folP: Dihydropteroate synthase (folP, Bacteria, UniProt P0AC13)
Sequence of UniProt P0AC13 (whole entry, looked up): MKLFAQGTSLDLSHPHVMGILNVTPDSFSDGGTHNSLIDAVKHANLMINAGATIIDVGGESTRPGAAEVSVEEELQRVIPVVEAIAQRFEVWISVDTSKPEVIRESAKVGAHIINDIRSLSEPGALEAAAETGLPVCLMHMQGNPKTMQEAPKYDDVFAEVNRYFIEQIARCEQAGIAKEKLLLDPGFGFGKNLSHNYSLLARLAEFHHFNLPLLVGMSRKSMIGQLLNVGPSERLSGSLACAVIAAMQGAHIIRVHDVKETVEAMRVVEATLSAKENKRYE
T1: RNA aptamer; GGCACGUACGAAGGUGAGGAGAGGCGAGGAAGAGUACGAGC
T2: RNA aptamer; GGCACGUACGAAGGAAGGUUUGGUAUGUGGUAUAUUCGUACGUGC
Sequence of UniProt Q92633 (whole entry, unmodified, looked up): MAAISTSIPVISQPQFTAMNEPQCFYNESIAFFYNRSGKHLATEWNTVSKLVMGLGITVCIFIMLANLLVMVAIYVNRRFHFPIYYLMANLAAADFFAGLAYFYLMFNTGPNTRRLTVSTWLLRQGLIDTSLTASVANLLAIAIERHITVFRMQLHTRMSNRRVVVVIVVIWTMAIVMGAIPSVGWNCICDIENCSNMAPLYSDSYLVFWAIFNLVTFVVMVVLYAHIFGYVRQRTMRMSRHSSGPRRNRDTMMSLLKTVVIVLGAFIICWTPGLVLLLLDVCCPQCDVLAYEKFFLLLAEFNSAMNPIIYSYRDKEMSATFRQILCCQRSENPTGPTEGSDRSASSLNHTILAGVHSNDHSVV
Sequence of UniProt Q9HB29 (whole entry, looked up): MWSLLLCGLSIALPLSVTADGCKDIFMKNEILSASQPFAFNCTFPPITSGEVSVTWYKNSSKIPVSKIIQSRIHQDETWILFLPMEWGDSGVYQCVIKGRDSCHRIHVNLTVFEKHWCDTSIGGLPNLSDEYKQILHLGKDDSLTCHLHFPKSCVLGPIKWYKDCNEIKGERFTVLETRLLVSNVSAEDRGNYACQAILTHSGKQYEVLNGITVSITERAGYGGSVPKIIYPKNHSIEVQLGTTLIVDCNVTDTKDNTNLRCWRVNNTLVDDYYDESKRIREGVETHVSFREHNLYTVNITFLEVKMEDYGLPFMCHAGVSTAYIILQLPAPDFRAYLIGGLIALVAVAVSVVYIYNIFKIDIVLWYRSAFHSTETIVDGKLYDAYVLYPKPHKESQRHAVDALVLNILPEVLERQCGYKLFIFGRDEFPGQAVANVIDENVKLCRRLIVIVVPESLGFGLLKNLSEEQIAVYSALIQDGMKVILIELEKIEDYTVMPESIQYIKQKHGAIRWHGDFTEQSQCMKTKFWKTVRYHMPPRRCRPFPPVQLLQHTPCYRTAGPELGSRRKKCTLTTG
Sequence of UniProt O15151 (whole entry, unmodified, looked up): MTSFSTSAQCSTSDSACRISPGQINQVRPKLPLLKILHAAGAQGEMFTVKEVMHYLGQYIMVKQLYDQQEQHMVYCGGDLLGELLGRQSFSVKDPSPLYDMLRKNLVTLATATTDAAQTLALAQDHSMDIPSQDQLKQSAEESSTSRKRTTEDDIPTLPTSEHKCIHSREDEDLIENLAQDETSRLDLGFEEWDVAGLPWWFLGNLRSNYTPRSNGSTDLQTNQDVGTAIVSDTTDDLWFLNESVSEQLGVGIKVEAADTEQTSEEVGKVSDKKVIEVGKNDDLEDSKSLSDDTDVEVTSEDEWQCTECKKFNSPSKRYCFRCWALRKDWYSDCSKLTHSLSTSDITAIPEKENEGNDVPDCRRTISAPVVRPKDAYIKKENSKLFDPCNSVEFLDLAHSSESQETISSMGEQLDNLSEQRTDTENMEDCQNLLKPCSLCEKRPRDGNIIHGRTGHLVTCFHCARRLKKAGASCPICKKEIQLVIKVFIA
Sequence of UniProt O94900 (whole entry, looked up): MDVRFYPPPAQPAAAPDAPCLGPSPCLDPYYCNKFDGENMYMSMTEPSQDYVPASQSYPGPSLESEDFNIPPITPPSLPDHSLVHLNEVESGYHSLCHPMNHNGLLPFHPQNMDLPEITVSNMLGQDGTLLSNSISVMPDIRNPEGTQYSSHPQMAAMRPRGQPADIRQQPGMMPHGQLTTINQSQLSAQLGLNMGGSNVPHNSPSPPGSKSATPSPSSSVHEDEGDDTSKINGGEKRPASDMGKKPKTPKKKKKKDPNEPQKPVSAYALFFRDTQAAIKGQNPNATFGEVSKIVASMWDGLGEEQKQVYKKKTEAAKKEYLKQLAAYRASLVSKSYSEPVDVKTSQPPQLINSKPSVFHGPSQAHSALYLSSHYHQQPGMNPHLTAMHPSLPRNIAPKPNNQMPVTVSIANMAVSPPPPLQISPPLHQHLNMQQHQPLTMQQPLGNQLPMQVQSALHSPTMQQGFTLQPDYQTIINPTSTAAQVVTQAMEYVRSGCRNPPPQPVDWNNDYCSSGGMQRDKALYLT
Sequence of UniProt Q14145 (whole entry, unmodified, looked up): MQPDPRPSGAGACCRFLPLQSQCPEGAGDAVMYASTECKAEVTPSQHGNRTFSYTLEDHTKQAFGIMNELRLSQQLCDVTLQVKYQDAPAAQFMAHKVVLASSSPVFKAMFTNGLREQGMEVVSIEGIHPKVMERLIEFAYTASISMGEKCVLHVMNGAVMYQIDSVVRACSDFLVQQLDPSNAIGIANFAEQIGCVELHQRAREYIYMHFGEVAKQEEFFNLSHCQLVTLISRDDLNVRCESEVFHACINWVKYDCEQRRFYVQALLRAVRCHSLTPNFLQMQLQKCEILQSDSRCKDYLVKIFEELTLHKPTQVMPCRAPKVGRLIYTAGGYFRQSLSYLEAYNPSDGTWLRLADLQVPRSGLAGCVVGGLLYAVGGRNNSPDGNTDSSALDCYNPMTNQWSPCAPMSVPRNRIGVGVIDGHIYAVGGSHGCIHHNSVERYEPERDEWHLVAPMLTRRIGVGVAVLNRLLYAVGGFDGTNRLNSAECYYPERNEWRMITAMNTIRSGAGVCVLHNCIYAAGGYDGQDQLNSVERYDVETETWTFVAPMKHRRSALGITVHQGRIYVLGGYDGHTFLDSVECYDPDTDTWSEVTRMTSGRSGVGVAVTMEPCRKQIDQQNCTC
Sequence of UniProt O94762 (whole entry, looked up): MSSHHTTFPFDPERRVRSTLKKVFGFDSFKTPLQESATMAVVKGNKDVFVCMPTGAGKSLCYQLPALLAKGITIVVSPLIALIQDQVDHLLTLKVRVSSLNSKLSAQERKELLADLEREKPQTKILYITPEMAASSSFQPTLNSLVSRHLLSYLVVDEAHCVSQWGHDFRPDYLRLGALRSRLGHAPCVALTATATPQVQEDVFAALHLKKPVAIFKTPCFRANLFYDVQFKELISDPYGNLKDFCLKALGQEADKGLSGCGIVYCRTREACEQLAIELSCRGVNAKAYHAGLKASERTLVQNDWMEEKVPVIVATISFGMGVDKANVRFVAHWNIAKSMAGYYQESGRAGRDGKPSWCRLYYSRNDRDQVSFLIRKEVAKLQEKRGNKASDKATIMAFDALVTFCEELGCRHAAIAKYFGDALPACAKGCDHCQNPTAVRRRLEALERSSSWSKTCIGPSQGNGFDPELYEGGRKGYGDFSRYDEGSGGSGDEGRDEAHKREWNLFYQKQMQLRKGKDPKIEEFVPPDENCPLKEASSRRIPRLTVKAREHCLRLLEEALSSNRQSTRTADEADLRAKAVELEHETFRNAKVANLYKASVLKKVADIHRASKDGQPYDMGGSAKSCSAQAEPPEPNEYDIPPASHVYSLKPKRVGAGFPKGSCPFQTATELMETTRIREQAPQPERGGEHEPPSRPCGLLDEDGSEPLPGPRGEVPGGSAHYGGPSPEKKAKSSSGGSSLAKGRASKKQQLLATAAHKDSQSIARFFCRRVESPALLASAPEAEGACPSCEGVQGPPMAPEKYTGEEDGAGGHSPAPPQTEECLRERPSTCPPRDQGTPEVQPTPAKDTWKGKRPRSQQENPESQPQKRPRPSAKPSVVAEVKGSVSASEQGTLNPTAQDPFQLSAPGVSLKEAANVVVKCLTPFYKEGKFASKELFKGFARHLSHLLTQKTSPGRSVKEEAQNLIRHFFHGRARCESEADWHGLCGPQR
Sequence of UniProt Q96SW2 (whole entry, looked up): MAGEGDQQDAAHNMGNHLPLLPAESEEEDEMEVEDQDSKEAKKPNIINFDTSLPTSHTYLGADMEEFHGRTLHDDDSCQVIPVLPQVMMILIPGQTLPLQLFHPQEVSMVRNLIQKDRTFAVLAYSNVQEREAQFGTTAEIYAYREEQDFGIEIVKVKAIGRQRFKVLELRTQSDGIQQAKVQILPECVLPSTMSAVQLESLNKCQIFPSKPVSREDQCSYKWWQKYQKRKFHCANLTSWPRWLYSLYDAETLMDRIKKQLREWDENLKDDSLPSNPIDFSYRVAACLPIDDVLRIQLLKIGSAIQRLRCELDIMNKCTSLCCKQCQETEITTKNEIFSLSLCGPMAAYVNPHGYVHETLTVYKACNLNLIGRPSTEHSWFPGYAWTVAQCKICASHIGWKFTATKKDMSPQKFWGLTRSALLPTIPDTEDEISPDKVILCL

CC(C)[C@@H]1NC(=O)[C@H](Cc2ccccc2)NC(=O)CSC[C@@H](C(N)=O)NC(=O)[C@H](CCC(=O)O)NC(=O)[C@H](CO)NC(=O)[C@H](Cc2c[nH]c3cccc(Cl)c23)NC(=O)[C@H](C2CCCCC2)NC(=O)[C@H](C(C)C)NC(=O)[C@H](Cc2ccc(O)cc2)NC(=O)[C@H](CC(=O)O)NC(=O)[C@H](Cc2c[nH]c3ccccc23)NC(=O)[C@H](Cc2ccc(N)nc2)NC(=O)[C@H](Cc2c[nH]c3ccc(Cl)cc23)NC(=O)[C@H](CCC(=O)O)NC1=O  remaining activity (Interleukin-1 receptor-like 2 (IL1RL2, Homo sapiens, UniProt Q9HB29); reporter gene (SEAP), inhibitor, HEK-Blue IL-36R reporter; HEK-Blue IL-36R cells; 0.046 µM, 6 h, added: IL-36γ 0.3 ng/mL): 92.7%
N=C(N)c1cc(-c2ccccc2)c(-c2cncn2CCN)s1  fluorescence polarization interference (YWHAH/AMOT (Homo sapiens, UniProt Q04917+Q4VCS5); fluorescence polarization; 1 mM, without 14-3-3 protein, added: FITC-labelled Amot-p130 peptide): no effect
Nc1ncnc2c1ncn2C1OC(COP(=O)(O)O)C(O)C1O (stereo not drawn)  Hill coefficient (Fructose-1,6-bisphosphatase 1 (Mus musculus, UniProt Q9QXD6, G27P); untagged G27P): 1.77 ± 0.15
NCc1cc2c(cc1F)C(=O)N(C1CCC(=O)NC1=O)C2 (stereo not drawn)  Dmax (CRBN/SALL4 (Homo sapiens, UniProt Q96SW2+Q9UJQ4); protein degradation, degrader; Kelly): 81%
CCCCCCCCCCCCCCCC(=O)OCC(CSC[C@H](N)C(=O)N[C@@H](CO)C(=O)N[C@@H](CCCCN)C(=O)N[C@@H](CCCCN)C(=O)N[C@@H](CCCCN)C(=O)N[C@@H](CCCCN)C(=O)NCCCCCC(=O)N[C@@H](CCCCN)C(=O)N[C@@H](CC(C)C)C(=O)N[C@H](C(=O)N[C@@H](Cc1ccccc1)C(=O)N[C@@H](Cc1ccccc1)C(=O)N[C@@H](Cc1ccc2ccccc2c1)C(=O)O)C(C)C)OC(=O)CCCCCCCCCCCCCCC (stereo partly drawn)  fibril diameter (Amyloid-beta precursor protein, fibrillar amyloid-beta (APP, Homo sapiens, UniProt P05067); TEM; 2.0 eq, 5 h, fibril 3, added: APP 20 µM): 88.8 nm
O=C1c2sc(-c3ccc(N4CCC(F)C4)nc3F)nc2CCN1c1cccnc1 (stereo not drawn)  inhibition (GABA transporter; radioligand binding; 1 µM, added: antagonist radioligand): -7%
COc1c(O[C@@H]2O[C@H](C(=O)O)[C@@H](O)[C@H](O)[C@H]2O)cc2oc(-c3ccccc3)cc(=O)c2c1O  binding index (COMT (Homo sapiens, UniProt P21964); UV; relative to: native over denatured target): 1.48
Cc1ccc2c(c1)N(C)C=CC2=Cc1sc2ccccc2[n+]1CC(=O)NCCOCCOCCOCCNC(=O)CCCC[C@@H]1SC[C@@H]2NC(=O)N[C@@H]21  Kd (T1, RNA aptamer; fluorescence titration): 17.7 nM
CC(C(=O)O)c1nn(C)c2nc(N)[nH]c(=O)c2c1=O (stereo not drawn)  melting temperature (folP; CETSA HiBiT; Escherichia coli, whole cells): 63.6 °C
CN(Cc1ccc(/C=C/C(=O)NO)cc1)CC12CC3CC(CC(C3)C1)C2  inhibition (human 5-HT3 receptor; antagonist radioligand binding; 0.05 µM): 1%
N#Cc1c(N)nc2c(c1-c1ccc(CO)o1)Cc1cc(O)ccc1-2  fold change (Thymocyte selection-associated high mobility group box protein TOX (Homo sapiens, UniProt O94900); anti-TOX IP-MS, refers to: eEF2; MOLT-4; 10 µM; relative to: DMSO): -3.8
Cc1ccc2c(c1)C(=Cc1sc3ccccc3[n+]1C)C=CN2C  Kd (T2, RNA aptamer; fluorescence titration): 2 nM
CCCCCCCCCCCCCCOc1c(O)cc(C(=O)O[C@@H]2Cc3c(O)cc(O)cc3O[C@@H]2c2cc(O)c(O)c(O)c2)cc1O  number of binding sites (Albumin (ALB, Homo sapiens, UniProt P02768); Scatchard plot; concentration not given, added: 10 µM HSA): 1.35
O=C(N[C@@H](Cn1cc(-c2ccc(F)cc2F)nn1)C(=O)O)OCC1c2ccccc2-c2ccccc21  ΔTm (Protein Mdm4 (MDM4, Homo sapiens, UniProt O15151); thermal stability, DSF; 30 µM): 1.36 °C
CC[C@H](C)[C@H](NC(=O)[C@H](Cc1c[nH]cn1)NC(C)=O)C(=O)N[C@@H](CCCCN)C(=O)N[C@H](C(=O)N[C@@H](Cc1c[nH]cn1)C(=O)N[C@@H](CC(C)C)C(=O)N[C@@H](CC(=O)O)C(=O)N[C@@H](CCC(=O)O)C(=O)N[C@@H](CCC(=O)O)C(=O)N[C@H](C(=O)NCC(=O)N[C@@H](CCC(=O)O)C(=O)N[C@@H](CCCCN)C(=O)N[C@H](C(=O)N[C@@H](CO)C(=O)N[C@H](C(=O)N[C@H](C(=O)N[C@@H](CC(C)C)C(=O)N[C@@H](CC(=O)O)C(=O)N[C@H](C(N)=O)C(C)C)[C@@H](C)O)[C@@H](C)CC)[C@@H](C)O)[C@@H](C)O)[C@@H](C)O  ΔG (Kelch-like ECH-associated protein 1, Kelch domain (KEAP1, Homo sapiens, UniProt Q14145); binding, ITC; pH 7, 298.15 K): -9.43 ± 0.06 kcal/mol
CCCCCCCO[C@H]1O[C@H](CO)[C@@H](O)[C@H](O)[C@@H]1O  enthalpy change (ΔH obs) (Type 1 fimbrin D-mannose specific adhesin, lectin domain (fimH, Escherichia coli K-12, UniProt P08191); isothermal titration calorimetry; concentration not given, 37 °C): -14.6 kcal/mol
CCN(CC)C(CO)c1cccc2c(C)c(C)oc12 (stereo not drawn)  fold change (LPAR1 (Homo sapiens, UniProt Q92633, W271A); G-protein dissociation, agonist, NanoBiT; HEK-293T; 100 pM, W271A mutant; relative to: baseline luminescence): 1.02 and 0.988 and 1.05 and 1.08
Cn1nnnc1NCc1nn(C)c2nc(N)[nH]c(=O)c2c1=O  melting temperature shift (folP; CETSA HiBiT; Escherichia coli, whole cells; concentration not given; relative to: DMSO): 2.54 °C
COc1ccccc1-c1ccncc1C(=O)Nc1nnc(OCc2ccc(Cl)cc2)s1  remaining activity (RECQL5 (Homo sapiens, UniProt O94762); ATPase activity, ADP-Glo; 0.48 µM, 1 h): 109%
CCCCCC=CC=C1C(=O)C=CC1CC=CCCCC(=O)O (stereo not drawn)  isoTOP-ABPP competition ratio (IDH1 (Homo sapiens, UniProt O75874); competitive isoTOP-ABPP; proteome, soluble, MDA-MB-231; 100 µM, 60 min, added: iodoacetamide probe; relative to: DMSO over compound-treated, higher = stronger cysteine blockade): 5.1
Cn1nc(CO)c(=O)c2c(=O)[nH]c(N)nc21  melting temperature (folP; CETSA HiBiT; Escherichia coli, whole cells): 59.4 °C
CCCC1(C)C(=O)N(c2cccc(CN3CCN(Cc4ccc(Br)cc4)CC3)c2)C1=O  activity vs control (DPP9 (Homo sapiens, UniProt Q86TI2); enzyme activity, inhibitor; 5 µM): 52%
Cn1nc(COC(=O)c2ccccc2)c(=O)c2c(=O)[nH]c(N)nc21  melting temperature (folP; CETSA HiBiT; Escherichia coli, whole cells): 62 °C
CC[C@H](C)[C@H](NC(=O)[C@H](CC(=O)O)NC(=O)[C@H](CCCNC(=N)N)NC(=O)[C@H](CC(C)C)NC(=O)[C@@H](NC(=O)[C@H](CCC(N)=O)NC(=O)[C@H](CC(C)C)NC(=O)[C@H](CO)NC(=O)[C@H](CCCNC(=N)N)NC(=O)[C@H](CCC(=O)O)NC(=O)[C@H](CCCNC(=N)N)NC(=O)[C@H](Cc1c[nH]cn1)NC(=O)[C@H](CCC(=O)O)NC(=O)[C@H](CC(C)C)NC(=O)[C@H](CCC(N)=O)NC(=O)[C@H](CCC(=O)O)NC(=O)[C@H](CCC(N)=O)NC(=O)[C@H](CO)NC(=O)[C@@H](N)CC(C)C)[C@@H](C)O)C(=O)N[C@@H](CCC(N)=O)C(=O)N[C@@H](CCCNC(=N)N)C(=O)N[C@@H](CCSC)C(=O)O  ΔS (Catenin beta-1, residues 141-305 (CTNNB1, Homo sapiens, UniProt P35222); ITC; 25 °C): 11.4 cal/mol/K
O=C(NO)c1ccc(Cn2c3c(c4cc(Br)ccc42)SC(c2ccccc2)C3)s1 (racemic)  interatomic distance (Histone deacetylase 8 (Schistosoma mansoni, UniProt A5H660); X-ray crystallography; ligand-Lys20 side chain, C2-CD): 3.66 Å
Cn1nc(CCCC(=O)O)c(=O)c2c(=O)[nH]c(N)nc21  target engagement efficiency (folP; CETSA HiBiT; Escherichia coli, whole cells; concentration not given; relative to: whole cell over lysate ΔTm): 10.5%
C=C(NC(=O)[C@H](C)NC(=O)c1csc(-c2cccnc2)n1)C(=O)OC  adduct formation rate (PRDX3 (Homo sapiens, UniProt P30048, A142E/C108S/S139E); MALDI-TOF, refers to: CR adduct; PRDX3 C108S; 200 µM, 37 °C): 0.0029 ± 0.0002 min⁻¹
